Results from different studies.
Each line is one published result; not all experiments were run side by side. “And” joins repeats or separate records; there may be more than shown. ≈ marks a conversion by molar mass, not a printed value.

`N#Cc1ccc2c(-c3ccncc3)c(-c3ccc(F)cc3)nn2c1` — result for “log2 fold change”: -1 (Pom1 kinase Candida albicans; MIB/MS competition binding; Candida albicans cell lysate; 10 µM; reference: DMSO, lower = stronger binding).
`Cc1c(CN2CCN(C(=O)[C@H](C)O)CC2)sc2c(N3CCOCC3)nc(-c3cnc(N)nc3)nc12` has an IC50 of 0.0124 µg/mL (≈ 0.0249 µM) (phospho-Akt; Akt phosphorylation, inhibitor; human patients with epithelioid sarcoma, plasma; PK-PD study).
`Oc1ccccc1-c1n[nH]cc1-c1ccnc2ccccc12`: “log2 fold change” -0.03 (SAT4 (Candida albicans); kinase binding, MIB/MS competition; Candida albicans lysate; 1 µM; reference: DMSO).
`COC(c1ccccc1)(c1ccccc1)[C@H](Oc1nc(C)cc(C)n1)C(=O)O` gave an inhibition of -197% (Nedd8-cullin1 interaction; neddylation, AlphaScreen; 100 µM).
`C#Cc1cc(-c2cc(Nc3nc(N[C@@H](C)c4ccc(F)cn4)ncc3Cl)n[nH]2)ccc1C=O`: “number of kinase hits” 59 (panel of 416 human kinases; kinase activity; 200 nM, hit threshold 20).
For `[Ca+2]`, “desensitization time constant” read 106 s and 73.1 s and 255 s and 128 s and 115 s and 84.5 s and 113 s (human TRPA1 W1103A; ion current, two-electrode voltage clamp; Xenopus oocytes; -80 mV, added: AITC, EGTA-AM 0.5 mM 20 min).
`CC[C@]12CCCN3CCc4c(n(c5ccccc45)[C@@](O)(C(=O)OC)C1)[C@@H]32` gave an inhibition of 12% (Nedd8-cullin1 interaction; neddylation, AlphaScreen; 100 µM).
Under “log2 fold change”, `c1coc(-c2n[nH]cc2-c2ccnc3ccccc23)c1` is recorded as 0.05 (SAT4 (Candida albicans); kinase binding, MIB/MS competition; Candida albicans lysate; 10 µM; reference: DMSO).
For `c1ccc(-c2n[nH]cc2-c2ccnc3ccccc23)nc1`, “log2 fold change” read 1.54 (Pom1 kinase Candida albicans; MIB/MS competition binding; Candida albicans cell lysate; 1 µM; reference: DMSO, lower = stronger binding).
For `C[N+](C)(C)NCCC(=O)[O-]`, the inhibition was -16.5% (Nedd8-cullin1 interaction; neddylation, AlphaScreen; 100 µM).

For quick reference, copied from above:
For `c1ccc(-c2n[nH]cc2-c2ccnc3ccccc23)nc1`, “log2 fold change” read 1.54 (Pom1 kinase Candida albicans; MIB/MS competition binding; Candida albicans cell lysate; 1 µM; reference: DMSO, lower = stronger binding).
